# Experimental data of several laboratories.
# Each line is one published result; not all experiments were run side by side. ± marks the error that the study gave.
# Chain of UniProt P0A0J7 (whole entry, looked up): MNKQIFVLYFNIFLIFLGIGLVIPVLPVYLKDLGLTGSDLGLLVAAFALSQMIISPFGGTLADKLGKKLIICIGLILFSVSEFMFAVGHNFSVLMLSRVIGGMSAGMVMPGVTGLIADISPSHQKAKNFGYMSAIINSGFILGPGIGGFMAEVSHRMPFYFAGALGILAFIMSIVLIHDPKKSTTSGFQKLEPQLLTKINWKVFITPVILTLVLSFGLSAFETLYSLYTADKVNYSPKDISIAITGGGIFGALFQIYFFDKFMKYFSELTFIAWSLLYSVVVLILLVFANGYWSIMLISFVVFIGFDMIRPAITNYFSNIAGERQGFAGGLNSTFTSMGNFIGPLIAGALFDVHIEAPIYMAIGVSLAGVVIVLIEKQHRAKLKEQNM
# Chain of UniProt A0A109QYD3 (whole entry, looked up): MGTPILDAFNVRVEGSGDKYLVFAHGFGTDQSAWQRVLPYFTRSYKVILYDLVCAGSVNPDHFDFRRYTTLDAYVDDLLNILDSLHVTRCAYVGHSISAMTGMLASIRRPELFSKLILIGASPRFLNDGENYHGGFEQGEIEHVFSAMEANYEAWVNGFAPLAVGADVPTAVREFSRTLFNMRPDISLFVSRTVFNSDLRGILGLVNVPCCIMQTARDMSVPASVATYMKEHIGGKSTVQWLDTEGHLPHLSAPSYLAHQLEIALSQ
# Chain of UniProt P52333 (whole entry, looked up): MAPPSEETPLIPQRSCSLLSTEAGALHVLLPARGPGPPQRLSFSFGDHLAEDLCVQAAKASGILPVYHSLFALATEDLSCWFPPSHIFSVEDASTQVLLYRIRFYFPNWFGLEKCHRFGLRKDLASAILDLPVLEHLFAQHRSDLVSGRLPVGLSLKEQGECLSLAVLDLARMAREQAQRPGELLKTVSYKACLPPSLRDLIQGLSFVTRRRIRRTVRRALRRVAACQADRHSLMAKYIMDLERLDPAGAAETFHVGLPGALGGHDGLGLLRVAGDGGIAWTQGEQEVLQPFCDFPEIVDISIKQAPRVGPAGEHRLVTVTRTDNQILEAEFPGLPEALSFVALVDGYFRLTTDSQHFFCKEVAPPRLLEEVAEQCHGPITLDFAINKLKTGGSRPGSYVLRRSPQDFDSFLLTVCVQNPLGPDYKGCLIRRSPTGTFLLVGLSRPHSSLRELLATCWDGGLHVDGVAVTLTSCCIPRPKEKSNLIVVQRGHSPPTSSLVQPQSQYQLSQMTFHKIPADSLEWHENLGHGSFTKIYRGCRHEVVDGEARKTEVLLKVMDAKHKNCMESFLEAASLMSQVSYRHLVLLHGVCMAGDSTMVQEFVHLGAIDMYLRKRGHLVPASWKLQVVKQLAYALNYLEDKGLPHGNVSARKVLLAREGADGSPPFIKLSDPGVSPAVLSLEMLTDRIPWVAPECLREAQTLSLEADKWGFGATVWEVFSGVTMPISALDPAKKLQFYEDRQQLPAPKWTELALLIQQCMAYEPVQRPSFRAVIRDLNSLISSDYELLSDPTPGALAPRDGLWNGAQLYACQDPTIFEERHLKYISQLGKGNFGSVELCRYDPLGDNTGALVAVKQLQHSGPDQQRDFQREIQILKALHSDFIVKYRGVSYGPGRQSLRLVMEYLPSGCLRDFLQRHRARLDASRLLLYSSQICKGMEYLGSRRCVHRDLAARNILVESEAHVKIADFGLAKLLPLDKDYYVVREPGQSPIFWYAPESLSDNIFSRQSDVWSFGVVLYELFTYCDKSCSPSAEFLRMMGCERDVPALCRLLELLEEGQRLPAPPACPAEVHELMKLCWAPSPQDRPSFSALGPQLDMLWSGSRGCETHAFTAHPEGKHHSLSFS
# Chain of UniProt P02769 (whole entry, looked up): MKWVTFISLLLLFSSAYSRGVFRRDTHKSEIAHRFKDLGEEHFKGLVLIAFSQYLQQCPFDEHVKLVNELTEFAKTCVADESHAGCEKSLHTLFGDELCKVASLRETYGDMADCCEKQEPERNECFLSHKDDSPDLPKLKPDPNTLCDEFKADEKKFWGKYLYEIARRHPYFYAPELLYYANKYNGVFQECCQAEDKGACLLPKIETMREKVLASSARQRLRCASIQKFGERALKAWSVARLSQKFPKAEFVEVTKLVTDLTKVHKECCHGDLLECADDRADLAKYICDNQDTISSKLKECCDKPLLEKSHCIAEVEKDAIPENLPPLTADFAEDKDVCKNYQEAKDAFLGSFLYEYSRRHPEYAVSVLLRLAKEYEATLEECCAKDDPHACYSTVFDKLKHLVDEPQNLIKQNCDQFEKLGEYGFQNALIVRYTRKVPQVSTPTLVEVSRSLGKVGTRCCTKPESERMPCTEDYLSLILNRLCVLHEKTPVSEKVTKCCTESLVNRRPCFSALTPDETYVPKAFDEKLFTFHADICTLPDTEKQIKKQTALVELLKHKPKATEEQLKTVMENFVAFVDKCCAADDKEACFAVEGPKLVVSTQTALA
# Chain of UniProt Q62968 (whole entry, looked up): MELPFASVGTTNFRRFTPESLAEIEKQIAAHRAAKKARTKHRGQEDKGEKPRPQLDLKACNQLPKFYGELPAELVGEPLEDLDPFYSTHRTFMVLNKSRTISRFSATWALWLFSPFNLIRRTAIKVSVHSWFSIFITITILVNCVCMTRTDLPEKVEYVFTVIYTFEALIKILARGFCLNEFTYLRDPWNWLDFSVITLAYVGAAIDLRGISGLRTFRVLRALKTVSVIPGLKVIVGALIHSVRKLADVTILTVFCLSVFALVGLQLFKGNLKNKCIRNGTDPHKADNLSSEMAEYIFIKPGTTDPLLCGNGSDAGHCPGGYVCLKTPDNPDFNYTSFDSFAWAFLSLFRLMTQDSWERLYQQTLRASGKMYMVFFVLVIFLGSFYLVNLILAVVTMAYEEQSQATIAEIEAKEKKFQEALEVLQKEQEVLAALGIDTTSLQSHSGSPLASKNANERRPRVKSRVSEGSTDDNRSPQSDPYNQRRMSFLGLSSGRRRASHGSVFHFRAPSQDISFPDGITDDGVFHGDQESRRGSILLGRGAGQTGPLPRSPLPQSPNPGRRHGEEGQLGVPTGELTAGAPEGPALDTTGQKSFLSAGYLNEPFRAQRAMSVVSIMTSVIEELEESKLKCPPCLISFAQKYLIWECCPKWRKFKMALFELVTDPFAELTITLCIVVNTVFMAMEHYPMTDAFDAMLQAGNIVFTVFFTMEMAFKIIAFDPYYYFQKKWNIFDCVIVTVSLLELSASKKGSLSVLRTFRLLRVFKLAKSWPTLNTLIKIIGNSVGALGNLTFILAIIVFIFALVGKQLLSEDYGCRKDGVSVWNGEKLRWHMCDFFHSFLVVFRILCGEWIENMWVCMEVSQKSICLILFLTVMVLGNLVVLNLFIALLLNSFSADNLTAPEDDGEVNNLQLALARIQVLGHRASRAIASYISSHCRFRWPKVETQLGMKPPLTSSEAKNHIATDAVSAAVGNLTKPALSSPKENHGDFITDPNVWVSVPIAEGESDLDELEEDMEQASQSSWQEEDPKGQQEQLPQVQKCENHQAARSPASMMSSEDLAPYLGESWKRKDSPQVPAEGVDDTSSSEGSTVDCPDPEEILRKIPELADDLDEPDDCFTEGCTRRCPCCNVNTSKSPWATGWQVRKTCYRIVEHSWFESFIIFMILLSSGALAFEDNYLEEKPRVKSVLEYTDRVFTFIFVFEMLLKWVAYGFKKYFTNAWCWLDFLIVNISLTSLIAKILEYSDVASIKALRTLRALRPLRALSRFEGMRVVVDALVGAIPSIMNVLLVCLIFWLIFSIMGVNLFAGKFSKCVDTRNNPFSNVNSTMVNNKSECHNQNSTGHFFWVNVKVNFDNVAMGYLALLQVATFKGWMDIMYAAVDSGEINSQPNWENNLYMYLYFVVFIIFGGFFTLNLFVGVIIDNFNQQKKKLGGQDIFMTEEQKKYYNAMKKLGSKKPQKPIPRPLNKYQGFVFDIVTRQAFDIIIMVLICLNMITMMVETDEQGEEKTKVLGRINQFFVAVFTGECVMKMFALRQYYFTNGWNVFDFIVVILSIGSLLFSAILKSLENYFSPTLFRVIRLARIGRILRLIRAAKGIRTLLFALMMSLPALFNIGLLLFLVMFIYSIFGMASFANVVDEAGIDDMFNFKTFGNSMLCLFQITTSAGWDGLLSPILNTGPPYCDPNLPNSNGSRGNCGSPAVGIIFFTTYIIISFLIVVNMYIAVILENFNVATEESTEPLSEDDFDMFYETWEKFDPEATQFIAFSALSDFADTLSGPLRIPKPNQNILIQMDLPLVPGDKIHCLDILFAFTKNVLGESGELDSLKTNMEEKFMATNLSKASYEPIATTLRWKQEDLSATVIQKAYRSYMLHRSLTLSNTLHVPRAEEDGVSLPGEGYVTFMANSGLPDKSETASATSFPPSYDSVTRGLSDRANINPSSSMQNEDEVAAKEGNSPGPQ
SMILES,target or system,assay,system,conditions,scale,endpoint,result
N=C(N)NCCC[C@@H]1NC(=O)[C@H](CCCCNC(=O)CC[C@H](NC(=O)CCOCCOCCOCCOCCNC(=O)CN2CCN(CC(=O)O)CCN(CC(=O)O)CCN(CC(=O)O)CC2)C(=O)NCCCC[C@@H]2NC(=O)[C@@H](Cc3ccccc3)NC(=O)[C@H](CC(=O)O)NC(=O)CNC(=O)[C@H](CCCNC(=N)N)NC2=O)NC(=O)[C@@H](Cc2ccccc2)NC(=O)[C@H](CC(=O)O)NC(=O)CNC1=O [indium-111 labelled],,,female athymic nude mouse,"intravenous, 3 µCi, 24 h, U-87 MG glioma xenograft",reference: tumour over muscle,tumour to muscle ratio,7.9 ± 1.53
N#CC[C@H](N)C(=O)O,"Cystathionine beta-synthase (CBS, Homo sapiens, UniProt P35520)","inhibitor, methylene blue",,recombinant GST fusion,,inhibitory concentration,> 1 mM
NC(=NN=Cc1cccs1)[S][Ru+]([Cl])([P](c1ccccc1)(c1ccccc1)c1ccccc1)[P](c1ccccc1)(c1ccccc1)c1ccccc1.[Cl-],"Albumin (ALB, Bos taurus, UniProt P02769)",fluorescence quenching,,"added: ibuprofen, site II marker",,quenching rate constant,1.14e+11 M⁻¹ s⁻¹
CCN(Cc1ccccc1)C(=O)CCc1nc(CN2CCN(C(=O)Cc3ccc(OC)c(OC)c3)CC2)no1,"Sodium channel protein type 10 subunit alpha (Scn10a, Rattus norvegicus, UniProt Q62968)",whole-cell patch clamp,rat DRG neurons,100 nM,,V1/2 of activation,-17.5 ± 1.11 mV
CCCC[C@H](NC(=O)CNC(=O)CNC(=O)c1ccc(NN)nc1)C(=O)N[C@H]1CC(=O)NCCCC[C@@H](C(N)=O)NC(=O)[C@H](Cc2c[nH]c3ccccc23)NC(=O)[C@H](CCCNC(=N)N)NC(=O)[C@@H](Cc2ccccc2)NC(=O)[C@H](Cc2c[nH]cn2)NC1=O [technetium-99m labelled],,,"C57 mouse, B16/F1 melanoma-bearing, kidneys","intravenous, 4 h",,tissue uptake,5.29 ± 1.84 %ID/g
CC(=O)/C=C/c1c(CCCC(=O)NCC(=O)NCc2cn(CCCNC(=O)c3ccc4c(c3)C(=O)OC43c4ccc(N(C)C)cc4Oc4cc(N(C)C)ccc43)nn2)[nH]c(=O)[nH]c1=O,HLA-A2 loaded with NLV peptide,fluorescence polarization,,concentration not given,,binding,no binding
CN1/C(=C/C=C/C=C/C2=[N+](CCCCCC(=O)NCCCCCCCCN3[C@H]4[C@H](O)[C@@H](O)[C@H](O[C@@H]5OC[C@@H](O)[C@H](O)[C@H]5O)C[C@H]43)c3ccccc3C2(C)C)C(C)(C)c2ccccc21 (stereo partly shown),"Exo-1,4-beta-xylosidase xlnD (xlnD, Emericella nidulans, UniProt Q5BAS1)",covalent inhibitor,Aspergillus nidulans,pH 4.5,,kinact/Ki,33.3 M⁻¹ s⁻¹
CC1=C(C)[C@@H](Oc2c(F)cc3c(C)cc(=O)oc3c2F)OC1=O,"RMS3 (Lathyrus oleraceus, UniProt A0A109QYD3)","enzyme activity, substrate, pre-steady-state kinetics",,,,kcat,0.136 ± 0.027 min⁻¹
c1ccc(CN2CCOCCOCCN(CCCCCCCCCCCCCCN3CCOCCOCCN(CCCCCCCCCCCCCCN4CCOCCOCCN(Cc5ccccc5)CCOCCOCC4)CCOCCOCC3)CCOCCOCC2)cc1,"Quinolone resistance protein NorA (Staphylococcus aureus, UniProt P0A0J7)",,1199B,NorA efflux,,MIC,~8 µM
CC(=O)NC(Cc1ccc(Br)c(Cl)c1)C(=O)N[C@@H](C)C(=O)N1CCC[C@H]1C(=O)N1CCC[C@H]1C(=O)N[C@@H](CCC(=O)O)C(=O)N[C@@H](Cc1c[nH]cn1)C(=O)N[C@@H](CO)C(=O)N[C@H](C(=O)N[C@@H](C)C(N)=O)[C@@H](C)OP(=O)(O)O (stereo partly shown),"Tyrosine-protein kinase JAK3 (JAK3, Homo sapiens, UniProt P52333)",,,10 µM,,inhibition,0.58 ± 0.03%
N=C(N)NCCC[C@@H]1NC(=O)[C@H](CCCCNC(=O)CC[C@H](NC(=O)CCOCCOCCOCCOCCNC(=O)CC[C@H](NC(=O)CN2CCN(CC(=O)O)CCN(CC(=O)O)CCN(CC(=O)O)CC2)C(=O)NCCOCCOCCOCCOCCC(=O)N[C@@H](CCC(=O)NCCCC[C@@H]2NC(=O)[C@@H](Cc3ccccc3)NC(=O)[C@H](CC(=O)O)NC(=O)CNC(=O)[C@H](CCCNC(=N)N)NC2=O)C(=O)NCCCC[C@@H]2NC(=O)[C@@H](Cc3ccccc3)NC(=O)[C@H](CC(=O)O)NC(=O)CNC(=O)[C@H](CCCNC(=N)N)NC2=O)C(=O)NCCCC[C@@H]2NC(=O)[C@@H](Cc3ccccc3)NC(=O)[C@H](CC(=O)O)NC(=O)CNC(=O)[C@H](CCCNC(=N)N)NC2=O)NC(=O)[C@@H](Cc2ccccc2)NC(=O)[C@H](CC(=O)O)NC(=O)CNC1=O [indium-111 labelled],,,"female athymic nude mice, heart","intravenous, 3 µCi, 72 h, U-87 MG glioma xenograft",,tissue uptake,0.1 ± 0.01 %ID/g
C#CC[C@H](NC(=O)CNC(=O)[C@H](CO)NC(=O)[C@@H]1CCCCNC(=O)CCCC(=O)N[C@@H](CCSC)C(=O)N[C@@H](Cc2c[nH]c3ccccc23)C(=O)N2CCC[C@H]2C(=O)N[C@@H](Cc2c[nH]cn2)C(=O)N[C@@H](CCCNC(=N)N)C(=O)N[C@@H](C(C)C)C(=O)N[C@@H]([C@@H](C)O)C(=O)N[C@@H](C)C(=O)N(C)[C@@H](C)C(=O)N1)C(=O)O,ubiquitin,radiolabelled pull-down,,"concentration not given, 60 min, room temperature",,binding,no binding
CCC(C(=O)OC)C1N=C(c2ccc(Cl)cc2)c2cc(OC)ccc2-n2c(C)nnc21 (stereo not shown),human BET bromodomains L/A mutant,"binding, isothermal titration calorimetry",,,reference: L/A mutant over wild type,selectivity ratio (average),160 fold

# A few entries again:
SMILES,target or system,assay,system,conditions,scale,endpoint,result
N#CC[C@H](N)C(=O)O,"Cystathionine beta-synthase (CBS, Homo sapiens, UniProt P35520)","inhibitor, methylene blue",,recombinant GST fusion,,inhibitory concentration,> 1 mM
CC(=O)NC(Cc1ccc(Br)c(Cl)c1)C(=O)N[C@@H](C)C(=O)N1CCC[C@H]1C(=O)N1CCC[C@H]1C(=O)N[C@@H](CCC(=O)O)C(=O)N[C@@H](Cc1c[nH]cn1)C(=O)N[C@@H](CO)C(=O)N[C@H](C(=O)N[C@@H](C)C(N)=O)[C@@H](C)OP(=O)(O)O (stereo partly shown),"Tyrosine-protein kinase JAK3 (JAK3, Homo sapiens, UniProt P52333)",,,10 µM,,inhibition,0.58 ± 0.03%
